{"data": "Measurements from different studies", "note": "Each numbered part is a random draw from the data of one study; scales do not carry over between parts. Substitutions count along the parent as printed."}
{"data": "Block 1", "target": "CEBPE, bZIP domain (human)", "technique": "DHFR protein complementation", "sample": "yeast", "setting": "single substitutions, most at no-binding floor", "relative to": "wild-type JUN-FOS pair", "direction": "higher = stronger binding", "starting sequence": "JUN, bZIP domain (human); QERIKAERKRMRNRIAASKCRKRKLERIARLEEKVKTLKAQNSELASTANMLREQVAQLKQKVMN; partner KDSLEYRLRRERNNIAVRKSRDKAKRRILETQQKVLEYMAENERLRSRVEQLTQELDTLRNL"}
{"Change": "Q41D", "binding fitness [natural log]": -1.3}
{"Change": "Q41V", "binding fitness [natural log]": -1.29}
{"Change": "T48I", "binding fitness [natural log]": -1.17}
{"Change": "M51R", "binding fitness [natural log]": -0.979}
{"Change": "K34G", "binding fitness [natural log]": -1.37}
{"Change": "E33S", "binding fitness [natural log]": -1.25}
{"Change": "R30N", "binding fitness [natural log]": -1.14}
{"Change": "K39W", "binding fitness [natural log]": -1.35}
{"Change": "L59H", "binding fitness [natural log]": -1.54}
{"Change": "S43G", "binding fitness [natural log]": -1.21}
{"Change": "K36L", "binding fitness [natural log]": -1.13}
{"Change": "Q41S", "binding fitness [natural log]": -1.61}
{"Change": "S43D", "binding fitness [natural log]": -0.857}
{"Change": "L31G", "binding fitness [natural log]": -1.48}
{"Change": "S47A", "binding fitness [natural log]": -0.924}
{"Change": "A40D", "binding fitness [natural log]": -1.18}
{"Change": "V56K", "binding fitness [natural log]": -1.47}
{"Change": "Q55R", "binding fitness [natural log]": -1.27}
{"Change": "T37P", "binding fitness [natural log]": -1.5}
{"Change": "E32N", "binding fitness [natural log]": -1.27}
{"Change": "R53W", "binding fitness [natural log]": -1.31}
{"data": "Block 2", "target": "Interferon regulatory factor 7, full length, phosphomimetic (IRF7, Homo sapiens, UniProt Q92985, residues 1-503, S101K/S471D/S472D/S475D/S476D/S477D/S483D/S484D/S487D)", "technique": "protein-binding microarray", "form": "double-stranded DNA, one strand shown", "sample": "in vitro", "concentration": "250 nM", "setting": "60-bp whole probe", "added": "salmon DNA 0.4 mg/ml", "relative to": "random background probes", "direction": "higher = stronger binding", "constant ends, left off below": "GCCTAGCAC … GTCTTGATTCGCTTGACGCTGCTG", "Target sequence (chain)": "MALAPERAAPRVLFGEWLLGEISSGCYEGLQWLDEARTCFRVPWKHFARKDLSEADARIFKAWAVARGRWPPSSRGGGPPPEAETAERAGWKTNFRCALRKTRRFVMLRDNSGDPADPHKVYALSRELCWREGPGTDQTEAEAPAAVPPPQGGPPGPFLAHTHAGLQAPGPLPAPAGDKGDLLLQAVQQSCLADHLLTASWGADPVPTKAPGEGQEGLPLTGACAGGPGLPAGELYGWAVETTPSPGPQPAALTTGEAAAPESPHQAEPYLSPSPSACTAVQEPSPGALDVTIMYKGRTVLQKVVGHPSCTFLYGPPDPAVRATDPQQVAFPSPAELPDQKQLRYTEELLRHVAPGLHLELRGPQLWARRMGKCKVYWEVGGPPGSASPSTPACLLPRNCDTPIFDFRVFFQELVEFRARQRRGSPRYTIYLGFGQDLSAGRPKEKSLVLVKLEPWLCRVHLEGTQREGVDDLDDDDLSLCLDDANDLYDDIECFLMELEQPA"}
{"Sequence": "TTAGGGTCCCTTTTCCTTTAGTGCTAG", "log fluorescence": "2.06 z-score"}
{"Sequence": "TTAGATTACAGTATCGATTAGTGCTAG", "log fluorescence": "0.849 z-score"}
{"Sequence": "GACGAACTAAGTATCGAGACGTGCTAG", "log fluorescence": "0.49 z-score"}
{"Sequence": "CCCAATCTCTCTTCACATATGTGCTAG", "log fluorescence": "0.756 z-score"}
{"Sequence": "GACGATTTCAGTCTCGAGCCGTGCTAG", "log fluorescence": "0.274 z-score"}
{"Sequence": "TTAGATATCAGTCTTGATTAGTGCTAG", "log fluorescence": "-0.159 z-score"}
{"Sequence": "GTCGATCTCAGTCTCGAGACGTGCTAG", "log fluorescence": "0.877 z-score"}
{"Sequence": "GATGGTTTCGACACTGGGGACGTGCTA", "log fluorescence": "4.03 z-score"}
{"Sequence": "GACGATTTCACTTCCGAGACGTGCTAG", "log fluorescence": "0.493 z-score"}
{"Sequence": "TTAGATTTCTGTATCGATTAGTGCTAG", "log fluorescence": "0.754 z-score"}
{"Sequence": "TTAGGTAGCGGTTTCGGTTAGTGCTAG", "log fluorescence": "7.8 z-score"}
{"Sequence": "GGGCAGGAAACGGAGGACACGTGCTAG", "log fluorescence": "-0.456 z-score"}
{"Sequence": "TTAGGTATTGGGACTGGGTTAGTGCTA", "log fluorescence": "-0.32 z-score"}
{"Sequence": "TTAGGTTTCCGTTCCCTTTAGTGCTAG", "log fluorescence": "6.23 z-score"}
{"Sequence": "GACGATTTCGGGTTACGAGACGTGCTA", "log fluorescence": "2.58 z-score"}
{"Sequence": "TTAGATATCAGAATGGATTAGTGCTAG", "log fluorescence": "-0.341 z-score"}
{"Sequence": "GACGAACTGGGATATCGAGACGTGCTA", "log fluorescence": "-0.346 z-score"}
{"Sequence": "GACGATATCGGGATTGGAGACGTGCTA", "log fluorescence": "-0.3 z-score"}
{"Sequence": "GACGATTTCAGTTCCGGGACGTGCTAG", "log fluorescence": "0.81 z-score"}
{"data": "Block 3", "target": "Sal-like protein 4, full length isoform B (SALL4, Homo sapiens, UniProt Q9UJQ4-2, residues 1-616)", "technique": "universal PBM", "form": "double-stranded DNA, one strand shown", "sample": "in vitro", "concentration": "not given", "setting": "8-mer, flanks averaged, mean of replicates", "direction": "higher = stronger binding"}
{"Sequence": "CCCAGACC", "E-score": -0.26}
{"Sequence": "GATATCAC", "E-score": 0.187}
{"Sequence": "CTACGATC", "E-score": 0.0234}
{"Sequence": "GATGCTGC", "E-score": -0.0566}
{"Sequence": "CGTTGTCC", "E-score": 0.00824}
{"Sequence": "GACCTAGA", "E-score": -0.088}
{"Sequence": "GGTATAAA", "E-score": 0.218}
{"Sequence": "CCTATTGC", "E-score": 0.0416}
{"Sequence": "AGCGAAGA", "E-score": 0.0135}
{"Sequence": "ACTTGACT", "E-score": -0.0229}
{"Sequence": "ATAGAGTA", "E-score": 0.23}
{"Sequence": "CATATTAC", "E-score": 0.393}
{"Sequence": "GTAGTGGA", "E-score": 0.00058}
{"Sequence": "GGATTGAC", "E-score": -0.0241}
{"Sequence": "CTCGAATC", "E-score": -0.147}
{"Sequence": "AATCTATC", "E-score": 0.194}
{"Sequence": "ACGACTCA", "E-score": -0.126}
{"data": "Block 4", "target": "RING finger protein unkempt homolog, zinc fingers 1-6, GST-SBP tag (UNK, Homo sapiens, UniProt Q9C0B0, residues 30-357)", "technique": "RNA Bind-n-Seq", "form": "RNA", "sample": "in vitro", "concentration": "not given", "setting": "RNA with constant flanks, human-mouse chimeric sites, ends assumed", "relative to": "input RNA pool", "direction": "higher = stronger binding", "constant ends, left off below": "GGGAGUUCUACAGUCCGACGAUC … CAACAGAGGAUUGAGCAUCA", "Residues (chain)": "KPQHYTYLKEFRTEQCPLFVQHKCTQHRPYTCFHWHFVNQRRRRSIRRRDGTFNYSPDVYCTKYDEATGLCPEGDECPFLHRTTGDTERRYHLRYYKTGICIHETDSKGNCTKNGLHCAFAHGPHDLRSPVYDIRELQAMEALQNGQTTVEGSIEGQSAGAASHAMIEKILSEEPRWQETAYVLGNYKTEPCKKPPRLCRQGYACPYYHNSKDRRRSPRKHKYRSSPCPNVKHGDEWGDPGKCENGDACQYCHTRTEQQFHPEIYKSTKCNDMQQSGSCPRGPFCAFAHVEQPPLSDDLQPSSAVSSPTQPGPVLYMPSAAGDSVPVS"}
{"Sequence": "AAAUUUCCUCUCUUAAAACCUCCUCCGAAGUUGGAGUCUCUUACAGAUGCCUCAUCCCCUGUUAGCGUUUUAGUUUGGACCACCCAGCCUUGGACAAUUCCCGCCAACCAGGCAAUUUGC", "bound/input enrichment [ratio]": 1.4}
{"Sequence": "CUUAAUGAUAUUUUGAGUGAAUAAAUGAAGCUAAAAUGUCUGCUUUUGGUACAACACGCAUUAAUAAAAGGUUAAGUUUUGUUUUCCACUGAAGUACUAUUUAACAUACAUCUCAGAAAC", "bound/input enrichment [ratio]": 0.0984}
{"Sequence": "AAGCAACGCAAACUUGAAACAAUUCGUUAUCUUGCAGCCUCAGUGUUCACUUGCUUGGCGAUAGCAUUGGGGUUUUAUAGGUUCUGGAAGGAGAACUGACGAUGAUGCUGCCGCUGCUGC", "bound/input enrichment [ratio]": 0.168}
{"Sequence": "UGUAGUUUCUUGAUUUAGUGGCUGGGCCUUUUCUUUCUUUCCUUUAGGAAAAGCCUAAAGAUUAGGUUGUAAGAAAAGAAAAUAGAAUGUUUCGAAGACCUGUGUUACAGGUAUUUCGUC", "bound/input enrichment [ratio]": 2.29}
{"Sequence": "CUCAUGGCUGCAGAAACAGGAAGUGGCAAAACUGGUGCUUUUAGUAUUCCCGUUAUCCAGAUAGUGUAUGAAACUCUGAAAGACCAACAGGAAGGAAAGAAAGGGAAAACAACUAUUAAA", "bound/input enrichment [ratio]": 0.617}
{"Sequence": "AAAGAAUGGAUAGAGUGUGCACACGGGAUCGGUGGGACCCGGGCGAAAAAGGAGUGCAAGAUAGAGUUCGAUGACUUCGUAGAGUGUUUGCUUCGGUACAAAACGAUGAGGCGAAUGCAU", "bound/input enrichment [ratio]": 0.621}
{"Sequence": "GGCUGCUGGUGACUGUCCUGGAGUGGCUGGAGUUCCCGCCGGAGCGCGGCCAGACUAAUUUUAGAAAAUGCCAAGUAGGAAGUUUGUUGAGGGUGAAGUGGUAAGAGGCCGAUGGCCUGG", "bound/input enrichment [ratio]": 9.61}
{"Sequence": "UCAUUUUUCUCUUUUCUUUCUUUCCUUAAAAGCCUAACUAAAGAUUAGGUUGUAAGAAAAACAGAAGCCAUGUUUCGAAGACCUGUGUUACAGGUACUUCGUCAGUUUGUAAGACAUGAG", "bound/input enrichment [ratio]": 0.159}
{"note": "Repeated from above (block 1):"}
{"Change": "S47A", "binding fitness [natural log]": -0.924}
{"Change": "A40D", "binding fitness [natural log]": -1.18}
{"Change": "V56K", "binding fitness [natural log]": -1.47}
{"Change": "Q55R", "binding fitness [natural log]": -1.27}
{"Change": "T37P", "binding fitness [natural log]": -1.5}
{"Change": "E32N", "binding fitness [natural log]": -1.27}
{"Change": "R53W", "binding fitness [natural log]": -1.31}
